Assay results collected from several papers.
Each numbered part is a random draw from the data of one study; scales do not carry over between parts.
Sequence of UniProt P42336 (whole entry, unmodified, looked up): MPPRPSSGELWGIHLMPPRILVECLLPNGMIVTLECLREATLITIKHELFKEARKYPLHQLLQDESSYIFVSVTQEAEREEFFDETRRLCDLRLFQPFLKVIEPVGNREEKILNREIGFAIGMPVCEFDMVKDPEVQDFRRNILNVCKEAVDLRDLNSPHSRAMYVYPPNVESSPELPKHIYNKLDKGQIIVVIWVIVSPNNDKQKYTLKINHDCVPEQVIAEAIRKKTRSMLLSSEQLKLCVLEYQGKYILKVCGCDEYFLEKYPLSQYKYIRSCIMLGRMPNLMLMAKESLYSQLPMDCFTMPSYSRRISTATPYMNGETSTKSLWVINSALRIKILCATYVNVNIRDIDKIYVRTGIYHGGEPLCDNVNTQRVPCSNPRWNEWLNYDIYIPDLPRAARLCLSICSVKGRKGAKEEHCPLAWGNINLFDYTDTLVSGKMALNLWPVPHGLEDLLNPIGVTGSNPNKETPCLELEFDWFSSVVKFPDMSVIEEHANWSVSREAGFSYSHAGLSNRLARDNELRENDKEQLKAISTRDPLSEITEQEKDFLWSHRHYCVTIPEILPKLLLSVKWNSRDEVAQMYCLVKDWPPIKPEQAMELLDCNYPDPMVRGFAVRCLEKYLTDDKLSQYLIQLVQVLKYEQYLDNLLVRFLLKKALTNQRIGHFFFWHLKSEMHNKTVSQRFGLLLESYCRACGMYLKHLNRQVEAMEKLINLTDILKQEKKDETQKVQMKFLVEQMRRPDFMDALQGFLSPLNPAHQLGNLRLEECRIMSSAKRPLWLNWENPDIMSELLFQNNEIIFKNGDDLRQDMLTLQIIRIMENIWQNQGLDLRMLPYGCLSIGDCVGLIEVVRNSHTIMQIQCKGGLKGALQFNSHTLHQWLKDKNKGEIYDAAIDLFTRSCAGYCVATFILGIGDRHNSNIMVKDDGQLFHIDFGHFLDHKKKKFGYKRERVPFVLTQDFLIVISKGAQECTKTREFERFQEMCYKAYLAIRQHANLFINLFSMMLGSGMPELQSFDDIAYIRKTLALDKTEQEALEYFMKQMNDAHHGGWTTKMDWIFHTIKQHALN

Set 1 — observed: ATPase activity; tested at: concentration not given; setting: with minus without ssDNA
Target: DNA polymerase theta, helicase domain (POLQ, Homo sapiens, UniProt O75417)
Sequence of UniProt O75417 (whole entry, looked up): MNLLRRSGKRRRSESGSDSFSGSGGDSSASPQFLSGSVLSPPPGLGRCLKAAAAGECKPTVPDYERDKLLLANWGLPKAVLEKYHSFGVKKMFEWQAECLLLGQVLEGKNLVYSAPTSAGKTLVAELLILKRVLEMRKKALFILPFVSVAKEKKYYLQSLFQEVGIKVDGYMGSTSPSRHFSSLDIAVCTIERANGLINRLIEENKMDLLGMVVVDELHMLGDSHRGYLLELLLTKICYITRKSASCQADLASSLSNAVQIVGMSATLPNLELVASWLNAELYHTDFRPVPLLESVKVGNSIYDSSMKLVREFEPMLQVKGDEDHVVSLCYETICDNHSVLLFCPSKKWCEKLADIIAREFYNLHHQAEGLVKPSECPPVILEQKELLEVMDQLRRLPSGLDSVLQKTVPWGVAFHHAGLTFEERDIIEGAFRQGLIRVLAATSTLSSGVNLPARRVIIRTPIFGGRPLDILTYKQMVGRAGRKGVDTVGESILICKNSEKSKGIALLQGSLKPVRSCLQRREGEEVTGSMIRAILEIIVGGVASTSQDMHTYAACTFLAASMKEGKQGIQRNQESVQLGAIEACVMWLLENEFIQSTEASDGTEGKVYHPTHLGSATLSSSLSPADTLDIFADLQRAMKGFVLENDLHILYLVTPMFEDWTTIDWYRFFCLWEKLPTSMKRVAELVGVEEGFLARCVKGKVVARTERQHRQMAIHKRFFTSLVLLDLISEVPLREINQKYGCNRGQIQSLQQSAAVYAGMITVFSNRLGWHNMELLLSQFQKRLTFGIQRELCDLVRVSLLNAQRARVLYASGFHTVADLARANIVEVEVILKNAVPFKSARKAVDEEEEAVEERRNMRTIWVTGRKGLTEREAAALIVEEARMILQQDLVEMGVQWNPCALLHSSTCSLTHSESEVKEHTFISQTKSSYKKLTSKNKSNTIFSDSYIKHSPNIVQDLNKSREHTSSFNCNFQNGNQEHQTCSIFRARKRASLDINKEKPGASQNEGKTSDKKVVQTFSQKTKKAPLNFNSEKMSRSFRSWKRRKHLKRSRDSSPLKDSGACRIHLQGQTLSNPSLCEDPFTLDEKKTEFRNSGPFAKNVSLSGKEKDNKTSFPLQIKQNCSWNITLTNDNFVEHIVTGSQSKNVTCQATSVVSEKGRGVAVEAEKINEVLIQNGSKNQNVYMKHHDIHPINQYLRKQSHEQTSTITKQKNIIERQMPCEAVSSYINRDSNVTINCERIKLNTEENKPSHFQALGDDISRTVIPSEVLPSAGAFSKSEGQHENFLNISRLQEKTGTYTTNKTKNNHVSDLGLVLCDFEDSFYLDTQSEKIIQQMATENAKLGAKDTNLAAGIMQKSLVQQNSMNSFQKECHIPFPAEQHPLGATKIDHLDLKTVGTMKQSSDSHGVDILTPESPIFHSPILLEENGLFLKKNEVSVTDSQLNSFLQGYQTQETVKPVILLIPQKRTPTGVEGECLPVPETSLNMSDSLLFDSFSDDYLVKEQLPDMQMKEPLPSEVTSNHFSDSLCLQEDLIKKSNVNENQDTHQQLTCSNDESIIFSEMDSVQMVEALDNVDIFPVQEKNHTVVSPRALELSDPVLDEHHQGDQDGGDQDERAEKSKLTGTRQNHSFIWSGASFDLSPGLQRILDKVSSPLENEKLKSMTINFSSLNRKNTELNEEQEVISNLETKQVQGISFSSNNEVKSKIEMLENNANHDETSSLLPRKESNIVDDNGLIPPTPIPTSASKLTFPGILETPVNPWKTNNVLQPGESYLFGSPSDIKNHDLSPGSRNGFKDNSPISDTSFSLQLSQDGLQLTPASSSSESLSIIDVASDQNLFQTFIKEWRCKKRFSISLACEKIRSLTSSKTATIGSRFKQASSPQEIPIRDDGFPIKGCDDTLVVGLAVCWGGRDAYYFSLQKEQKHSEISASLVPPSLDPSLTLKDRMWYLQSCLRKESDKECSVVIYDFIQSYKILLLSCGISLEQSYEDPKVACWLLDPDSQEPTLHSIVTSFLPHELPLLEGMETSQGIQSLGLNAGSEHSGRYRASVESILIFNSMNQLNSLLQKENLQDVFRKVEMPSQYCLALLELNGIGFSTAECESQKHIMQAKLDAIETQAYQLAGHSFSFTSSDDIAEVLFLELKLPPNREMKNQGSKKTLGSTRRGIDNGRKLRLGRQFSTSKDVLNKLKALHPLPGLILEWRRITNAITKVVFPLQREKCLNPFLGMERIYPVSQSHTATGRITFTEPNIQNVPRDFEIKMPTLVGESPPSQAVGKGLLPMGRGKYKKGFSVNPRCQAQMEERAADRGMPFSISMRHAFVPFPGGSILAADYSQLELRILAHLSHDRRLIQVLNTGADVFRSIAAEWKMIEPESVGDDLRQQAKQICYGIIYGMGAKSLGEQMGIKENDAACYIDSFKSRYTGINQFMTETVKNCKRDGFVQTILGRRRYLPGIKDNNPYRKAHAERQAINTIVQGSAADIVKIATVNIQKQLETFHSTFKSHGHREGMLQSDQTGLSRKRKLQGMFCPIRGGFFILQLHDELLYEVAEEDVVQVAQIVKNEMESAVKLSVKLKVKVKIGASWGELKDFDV
`CCOc1nc2cccc(C(=O)OCc3oc(=O)oc3C)c2n1Cc1ccc(-c2ccccc2-c2noc(=O)[nH]2)cc1` gave an activity difference of 12.4%.
`Cc1ccc(-c2n[nH]c3c2C(c2ccccc2Cl)N(c2ccc(C(=O)O)cc2)C3=O)cc1` (stereo not drawn) has an activity difference of 8.67%.
`Cc1ccc(C(=O)c2cc(O)c(O)c([N+](=O)[O-])c2)cc1` has an activity difference of 8.38%.
The activity difference of `O=C(Nc1noc2ccccc12)c1ccc(F)cc1` is reported as 4.19%.
With `Cc1ccc(-c2n[nH]c3c2C(c2cccc(O)c2)N(c2ccc(C(=O)O)cc2)C3=O)cc1` (stereo not drawn) the activity difference was 5.61%.
With `Cc1ccc(C(=O)Nc2ccccc2C(=O)O)cc1S(=O)(=O)N1CCCCCC1` the activity difference was 4.13%.
`O=C(Nc1ccccc1F)c1ccc2c(Cl)c3c(nc2c1)CCC3` has an activity difference of 4.23%.
The activity difference of `O=C(Nc1cc2cc[nH]c2cn1)c1ccccc1` is reported as 3.95%.

Set 2 — tested at: 1 µM
Structure (SMILES): C[C@H](c1ccc(F)cc1)N(Cc1cccc(C(=O)O)c1)C(=O)c1cnc2ccccc2c1
It gave 90% for remaining binding (EGFR (Homo sapiens, UniProt P00533, G719C); cell-free assay, competition with immobilised ligand).
It gave 79% for remaining binding (MATK (Homo sapiens, UniProt P42679); cell-free assay, competition with immobilised ligand).
For CDK11B (Homo sapiens, UniProt P21127); cell-free assay, competition with immobilised ligand: remaining binding read 84%.
The remaining binding was 95% (FLT4 (Homo sapiens, UniProt P35916); cell-free assay, competition with immobilised ligand).
The remaining binding was 100% (CSF1R (Homo sapiens, UniProt P07333); cell-free assay, competition with immobilised ligand).
For DAPK2 (Homo sapiens, UniProt Q9UIK4); cell-free assay, competition with immobilised ligand: remaining binding read 88%.
The remaining binding was 100% (IGF1R (Homo sapiens, UniProt P08069); cell-free assay, competition with immobilised ligand).
It gave 93% for remaining binding (MAPK4 (Homo sapiens, UniProt P31152); cell-free assay, competition with immobilised ligand).
For PIK3CA (Homo sapiens, UniProt P42336, E545A); cell-free assay, competition with immobilised ligand: remaining binding read 100%.
FES (Homo sapiens, UniProt P07332); cell-free assay, competition with immobilised ligand — remaining binding: 100%.
It gave 100% for remaining binding (PRPF4B (Homo sapiens, UniProt Q13523); cell-free assay, competition with immobilised ligand).
For MAP4K3 (Homo sapiens, UniProt Q8IVH8); cell-free assay, competition with immobilised ligand: remaining binding read 90%.
It gave 100% for remaining binding (FLT3 (Homo sapiens, UniProt P36888, R834Q); cell-free assay, competition with immobilised ligand).
GSK3A (Homo sapiens, UniProt P49840); cell-free assay, competition with immobilised ligand — remaining binding: 100%.
GRK2 (Homo sapiens, UniProt P25098); cell-free assay, competition with immobilised ligand — remaining binding: 80%.
ANKK1 (Homo sapiens, UniProt Q8NFD2); cell-free assay, competition with immobilised ligand — remaining binding: 81%.
The remaining binding was 98% (PI4KB (Homo sapiens, UniProt Q9UBF8); cell-free assay, competition with immobilised ligand).
It gave 90% for remaining binding (BRAF (Homo sapiens, UniProt P15056); cell-free assay, competition with immobilised ligand).
For LATS1 (Homo sapiens, UniProt O95835); cell-free assay, competition with immobilised ligand: remaining binding read 100%.
For SYK (Homo sapiens, UniProt P43405); cell-free assay, competition with immobilised ligand: remaining binding read 87%.
It gave 100% for remaining binding (CDC42BPA (Homo sapiens, UniProt Q5VT25); cell-free assay, competition with immobilised ligand).
It gave 100% for remaining binding (Tyrosine-protein kinase ABL1, phosphorylated (ABL1, Homo sapiens, UniProt P00519, F317I); binding).
The remaining binding was 100% (PIK3CA (Homo sapiens, UniProt P42336, E545K); cell-free assay, competition with immobilised ligand).
For CDKL3 (Homo sapiens, UniProt Q8IVW4); binding, competition with immobilised ligand: remaining binding read 64%.
CHEK1 (Homo sapiens, UniProt O14757); cell-free assay, competition with immobilised ligand — remaining binding: 100%.

Set 3 — observed: enzyme activity; action: inhibitor; tested at: 10 µM
Target: Calcium/calmodulin-dependent protein kinase type II subunit alpha (CAMK2A, Homo sapiens, UniProt Q9UQM7)
Sequence of UniProt Q9UQM7 (whole entry, looked up): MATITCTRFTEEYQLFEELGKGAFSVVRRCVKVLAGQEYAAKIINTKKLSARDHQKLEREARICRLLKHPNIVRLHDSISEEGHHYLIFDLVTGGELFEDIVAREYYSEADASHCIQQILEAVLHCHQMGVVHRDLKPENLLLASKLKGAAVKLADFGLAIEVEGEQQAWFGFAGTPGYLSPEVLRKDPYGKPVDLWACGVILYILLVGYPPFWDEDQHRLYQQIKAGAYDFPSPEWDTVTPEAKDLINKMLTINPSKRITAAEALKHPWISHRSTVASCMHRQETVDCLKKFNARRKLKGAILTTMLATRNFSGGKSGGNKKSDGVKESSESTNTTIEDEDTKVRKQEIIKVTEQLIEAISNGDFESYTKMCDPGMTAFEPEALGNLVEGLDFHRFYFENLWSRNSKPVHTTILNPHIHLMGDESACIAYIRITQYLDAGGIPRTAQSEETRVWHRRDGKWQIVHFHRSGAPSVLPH
For `CC(=O)Nc1ccc(OC(=O)c2ccccc2OC(C)=O)cc1`, the inhibition was -6%.
`O=C1CCc2ccccc2O1` gave an inhibition of 1%.
The inhibition of `CC(C)[C@H](N)C(=O)O` is reported as -3%.
`Cc1ccc(=O)n(-c2ccccc2)c1` gave an inhibition of -5%.
With `CCCCC(CC)COC(=O)c1ccccc1O` (stereo not drawn) the inhibition was -3%.
`C=CC(=O)Nc1cc(Nc2nccc(-n3cc(CN(C)C)c(-c4ccccc4)n3)n2)c(OC)cc1N1CCOCC1` has an inhibition of -7%.
For `COc1ccc2c(c1)O[C@H]1c3ccc(O)cc3OC[C@@H]21`, the inhibition was 5%.
`COc1ccc([C@@H]2CC(=O)c3c(O)cc(O[C@@H]4O[C@H](CO)[C@@H](O)[C@H](O)[C@H]4O[C@@H]4O[C@@H](C)[C@H](O)[C@@H](O)[C@H]4O)cc3O2)cc1O` gave an inhibition of 0%.
The inhibition of `C[N+](C)(C)CCCC(=O)O` is reported as -11%.
With `CC(C)=CCC[C@](C)(O[C@@H]1O[C@H](CO[C@@H]2O[C@H](CO)[C@@H](O)[C@H](O)[C@H]2O)[C@@H](O)[C@H](O)[C@H]1O)[C@H]1CC[C@]2(C)[C@@H]1[C@H](O)C[C@@H]1[C@@]3(C)CC[C@H](O[C@@H]4O[C@H](CO)[C@@H](O)[C@H](O)[C@H]4O[C@@H]4O[C@H](CO)[C@@H](O)[C@H](O)[C@H]4O[C@@H]4OC[C@@H](O)[C@H](O)[C@H]4O)C(C)(C)[C@@H]3CC[C@]12C` the inhibition was 26%.
For `COc1ccc(C(=O)O)c(O)c1`, the inhibition was 0%.
`C=C(CC)C(=O)c1ccc(OCC(=O)O)c(Cl)c1Cl` has an inhibition of 10%.
For `O=Cc1cccc(O)c1`, the inhibition was 12%.
The inhibition of `Cc1ccc(C(=O)O)cc1C` is reported as 8%.

Set 4 — observed: enzyme activity; action: inhibitor; tested at: 0.5 µM; baseline: control
Target: Fibroblast growth factor receptor 4 (FGFR4, Homo sapiens, UniProt P22455)
Sequence of UniProt P22455 (whole entry, looked up): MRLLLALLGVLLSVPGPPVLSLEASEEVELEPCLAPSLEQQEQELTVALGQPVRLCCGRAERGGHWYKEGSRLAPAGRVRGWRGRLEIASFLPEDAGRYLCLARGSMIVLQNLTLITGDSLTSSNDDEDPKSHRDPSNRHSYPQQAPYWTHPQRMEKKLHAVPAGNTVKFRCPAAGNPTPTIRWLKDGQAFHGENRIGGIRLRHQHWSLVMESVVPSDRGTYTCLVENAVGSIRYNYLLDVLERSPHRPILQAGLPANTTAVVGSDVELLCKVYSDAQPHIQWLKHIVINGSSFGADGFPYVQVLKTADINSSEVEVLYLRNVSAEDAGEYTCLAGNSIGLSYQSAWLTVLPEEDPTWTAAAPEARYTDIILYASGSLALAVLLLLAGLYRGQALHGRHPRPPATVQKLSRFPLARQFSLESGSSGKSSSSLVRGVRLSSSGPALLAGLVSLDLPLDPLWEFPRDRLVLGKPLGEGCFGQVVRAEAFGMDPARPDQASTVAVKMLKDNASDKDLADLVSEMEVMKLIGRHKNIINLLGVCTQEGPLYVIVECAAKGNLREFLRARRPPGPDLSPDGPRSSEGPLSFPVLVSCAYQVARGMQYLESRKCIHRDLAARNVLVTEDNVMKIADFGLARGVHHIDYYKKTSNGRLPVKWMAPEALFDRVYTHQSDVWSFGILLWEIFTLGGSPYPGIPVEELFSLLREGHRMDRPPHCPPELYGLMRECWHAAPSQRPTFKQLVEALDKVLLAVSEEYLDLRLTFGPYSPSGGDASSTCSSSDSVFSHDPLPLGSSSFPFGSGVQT
`COc1ccc(-c2cnc3c(-c4ccsc4)cnn3c2)cc1` has a remaining activity of 89.2%.
With `Nc1[nH]nc2nnc(-c3c(-c4ccccc4)nn4ccccc34)cc12` the remaining activity was 104%.
`COc1cc2ncnc(N3CCN(C(=O)Nc4ccc(Oc5ccccc5)cc4)CC3)c2cc1OC` has a remaining activity of 99.7%.
For `CCC(=O)Nc1ccc2ncnc(Nc3cccc(Br)c3)c2c1`, the remaining activity was 95.2%.
With `CCOc1cc2ncnc(Nc3cccc(Br)c3)c2cc1OCC` the remaining activity was 87.1%.
With `CC(C)c1nn(-c2c(Cl)cccc2Cl)c2nc(Cc3ccc(OCCO)cc3)[nH]c(=O)c12` the remaining activity was 91.5%.
The remaining activity of `Cn1cnc2cc3c(Nc4cccc(Br)c4)ncnc3cc21` is reported as 94.1%.
For `O=C(Nc1ccc(Cl)cc1)c1ccccc1NCc1ccncc1`, the remaining activity was 84.1%.
The remaining activity of `O=C1NC(=O)/C(=C/c2ccc3nccnc3c2)S1` is reported as 98%.
`COc1cc2ncnc(Nc3ccc(OCc4ccccc4)cc3)c2cc1OC` has a remaining activity of 106%.
`CN(C)CCCn1cc(C2=C(c3c[nH]c4ccccc34)C(=O)NC2=O)c2ccccc21` has a remaining activity of 89%.
For `Cc1nc(Nc2ncc(C(=O)Nc3c(C)cccc3Cl)s2)cc(N2CCN(CCO)CC2)n1`, the remaining activity was 91.1%.
`C[S+]([O-])c1ccc(-c2nc(-c3ccncc3)c(-c3ccc(F)cc3)[nH]2)cc1` (stereo not drawn) has a remaining activity of 73.8%.
`O=c1cc(N2CCOCC2)oc2c1ccc1ccccc12` gave a remaining activity of 108%.
`CC(C)[C@H](CO)Nc1nc(Nc2cccc(Cl)c2)c2ncn(C(C)C)c2n1` gave a remaining activity of 79%.
The remaining activity of `COc1ccc(Cl)cc1NC(=O)Nc1cc(C)nc2ccccc12` is reported as 102%.
For `CS(=O)(=O)CCNCc1ccc(-c2ccc3ncnc(Nc4ccc(OCc5cccc(F)c5)c(Cl)c4)c3c2)o1`, the remaining activity was 96.6%.
For `COc1cc2ncc(-c3ccccc3)nc2cc1OC`, the remaining activity was 78.7%.
For `CC(=O)O/N=C1/C(c2c(O)[nH]c3cc(Br)ccc23)=Nc2ccccc21`, the remaining activity was 82.6%.
`CCN1/C(=C/C(C)=O)Sc2ccc(OC)cc21` has a remaining activity of 92.3%.
`Cc1ccc(NC(=O)c2ccc(CN3CCN(C)CC3)cc2)cc1Nc1nccc(-c2cccnc2)n1` has a remaining activity of 96.3%.
`Cn1cc(/C=C2\C(=O)Nc3ccc(S(N)(=O)=O)cc32)c2ccccc21` has a remaining activity of 74.1%.

A few entries again (set 4):
For `Cc1nc(Nc2ncc(C(=O)Nc3c(C)cccc3Cl)s2)cc(N2CCN(CCO)CC2)n1`, the remaining activity was 91.1%.
`C[S+]([O-])c1ccc(-c2nc(-c3ccncc3)c(-c3ccc(F)cc3)[nH]2)cc1` (stereo not drawn) has a remaining activity of 73.8%.
`O=c1cc(N2CCOCC2)oc2c1ccc1ccccc12` gave a remaining activity of 108%.
`CC(C)[C@H](CO)Nc1nc(Nc2cccc(Cl)c2)c2ncn(C(C)C)c2n1` gave a remaining activity of 79%.
The remaining activity of `COc1ccc(Cl)cc1NC(=O)Nc1cc(C)nc2ccccc12` is reported as 102%.
For `CS(=O)(=O)CCNCc1ccc(-c2ccc3ncnc(Nc4ccc(OCc5cccc(F)c5)c(Cl)c4)c3c2)o1`, the remaining activity was 96.6%.
For `COc1cc2ncc(-c3ccccc3)nc2cc1OC`, the remaining activity was 78.7%.
For `CC(=O)O/N=C1/C(c2c(O)[nH]c3cc(Br)ccc23)=Nc2ccccc21`, the remaining activity was 82.6%.
`CCN1/C(=C/C(C)=O)Sc2ccc(OC)cc21` has a remaining activity of 92.3%.
